# Measured values pooled from the literature.
# ± gives the spread as reported.
Substance,organism,assay,system,conditions,EC50
O=C(N1CCC2(CC1)CC(CNS(=O)(=O)CCCCCl)CCO2)C1(c2ccccc2)CCCC1 (centres unmarked),Venezuelan equine encephalitis virus,viral replication,,,10 µM
N#Cc1c(Nc2ccc(F)cc2)n[nH]c1NS(=O)(=O)c1ccc2ccccc2c1,Eastern equine encephalitis virus,viral replication,Huh-7,,> 8 µM
CC(C)Oc1ccc(-c2ccn3cnc(-c4ccc(OC(C)C)cc4)c3c2)cc1,vesicular stomatitis virus,"viral entry, inhibitor",,pseudotyped with Lassa virus glycoprotein,> 0.02 µM
COc1cc(C(=O)OCCCN2CCCN(CCCOC(=O)c3cc(OC)c(OC)c(OC)c3)CC2)cc(OC)c1OC,SARS-CoV-2,"viral replication, high-content imaging screen",,cell-based,> 100 µM
COc1ccccc1NC(=O)NCC1CCOC2(CCN(C(=O)C3(c4ccccc4)CCCC3)CC2)C1 (centres unmarked),Venezuelan equine encephalitis virus,viral replication,,,> 39.8 µM
O=C(N1CCC2(CC1)C[C@H](CN1CCCCS1(=O)=O)CCO2)C1(c2ccccc2)CCCC1,Influenza A virus H5N1,viral replication,MDCK,,> 32 µM
NCC(=O)NCC(=O)N1Cc2cc(Cl)ccc2CC1c1ccccc1 (centres unmarked),SARS-CoV,viral replication,Vero 76,72 h,26 µM
CC(C)C(=O)NCC1CCOC2(CCN(C(=O)C3(c4ccccc4)CCCC3)CC2)C1 (centres unmarked),Venezuelan equine encephalitis virus,viral replication,,,20 µM
CN(C)CC/C=C1\c2ccccc2CSc2ccccc21,SARS-CoV-2,"viral replication, high-content imaging screen",,cell-based,> 25.1 µM
NC(=O)c1nc(F)c[nH]c1=O,Junin virus,"viral replication, inhibitor","Vero, Candid #1",,4.4 ± 2.7 µM
NC(=O)c1nc(F)c[nH]c1=O,Lyssavirus rabies,"viral replication, item: RABV",BHK-21,,5.9 µM
CC1(C)[C@@H](O[C@H]2O[C@H](C(=O)O)[C@@H](O)[C@H](O)[C@H]2O[C@@H]2O[C@H](C(=O)O)[C@@H](O)[C@H](O)[C@H]2O)CC[C@]2(C)[C@H]3C(=O)C=C4[C@@H]5C[C@@](C)(C(=O)O)CC[C@]5(C)CC[C@@]4(C)[C@]3(C)CC[C@@H]12,SARS coronavirus,,FRhK-4,72 h,> 400 µg/mL
CN1CCN(CCCN2c3ccccc3Sc3ccccc32)CC1,SARS-CoV-2,"viral replication, GFP plate reader screen",,cell-based,14 µM
CN(C)C1CCN(C(=O)c2cc3ccccc3n2CC2CCCCC2)CC1,Sudan ebolavirus,pseudovirus infection,A549,,0.771 ± 0.07 µM
Nc1ccn(C[C@@H](CO)OCP(=O)(O)O)c(=O)n1,Monkeypox virus,viral replication,HEL 299,,17.2 ± 6.4 µM
CC(C)[C@H](NC(=O)[C@H](CCCNC(=N)N)NC(=O)N[C@@H](Cc1ccccc1)C(=O)O)C(=O)N[C@H](C=O)CCCNC(=N)N,SARS-CoV-2 Omicron BA.2,pseudovirus infection,,48 h,1.11 µM
CCCCCCN(CC1CCOC2(CCN(C(=O)C3(c4ccccc4)CCCC3)CC2)C1)S(C)(=O)=O (centres unmarked),Venezuelan equine encephalitis virus,viral replication,,,10 µM
CN(C)C(=O)c1cc2cnc(Nc3ccc(N4CCNCC4)cn3)nc2n1C1CCCC1,SARS-CoV-2,"viral replication, GFP plate reader screen",,cell-based,> 100 µM
O=c1ccn([C@@H]2O[C@H](CO)[C@@H](O)[C@H]2O)c(=S)[nH]1,yellow fever virus,viral replication,BHK-21,,2.9 µM
Cc1cc2nnn(-c3ccc(OC(C)C)cc3)c2cc1-c1ccc(OC(C)C)cc1,Junin virus,viral replication,,,< 0.001 µM
CCN(CC)CCCC(C)Nc1ccnc2cc(Cl)ccc12 (centres unmarked),Feline infectious peritonitis virus,"viral replication, visual scoring",,48 h,27.9 µM
COc1ccc(C(=O)NCC2CCOC3(CCN(C(=O)C4(c5ccccc5)CCCC4)CC3)C2)cc1 (centres unmarked),Venezuelan equine encephalitis virus,viral replication,,,20 µM
O=c1[nH]c(=O)n([C@H]2C[C@H](O)[C@@H](CO)O2)cc1/C=C/Br,Vaccinia virus,antiviral activity,"HEL, Lederle",,4 ± 2.3 µM
NC(=O)c1ncn([C@@H]2O[C@H](CO)[C@@H](O)[C@H]2O)n1,Junin virus,"viral replication, inhibitor","Vero, Candid #1",,13.8 ± 11.2 µM
CN1CCN(CCCN2c3ccccc3Sc3ccc(S(=O)(=O)N(C)C)cc32)CC1,SARS-CoV-2,"viral replication, GFP plate reader screen",,cell-based,13.2 µM
NC(=O)c1ncn([C@@H]2O[C@H](CO)[C@@H](O)[C@H]2O)n1,Mammarenavirus juninense,"viral replication, item: JUNV",HEK-293T,,2.6 µM
O=C(Nc1ccc(N2CCC3(CCC3)CC2)c(C(F)(F)F)c1)c1ccc(C(=O)N2C[C@@H]3C[C@H]2CO3)nc1,Marburg virus Angola,viral replication,wild type,,1.33 ± 0.16 µM
NC12CC3CC(CC(C3)C1)C2,Influenza A virus H1N1,viral replication,A/Brisbane/59/2007,,0.54 ± 0.11 µM
C=CCNC1=C2C[C@@H](C)C[C@H](OC)[C@H](O)[C@@H](C)/C=C(\C)[C@H](OC(N)=O)[C@@H](OC)/C=C\C=C(/C)C(=O)NC(=CC1=O)C2=O,influenza A virus,viral replication,A/swine/OH/511445/2007 (H1N1),,> 10 µM
O=C(NCC1CCOC2(CCN(C(=O)C3(c4ccccc4)CCCC3)CC2)C1)c1cccnc1 (centres unmarked),Venezuelan equine encephalitis virus,viral replication,,,12.6 µM
COc1ccc2cc1Oc1ccc(cc1)C[C@H]1c3c(cc4c(c3Oc3cc5c(cc3OC)CCN(C)[C@@H]5C2)OCO4)CCN1C,Severe acute respiratory syndrome coronavirus,pseudoparticle entry,Vero C1008,48 h,1.92 µM
NC(=O)c1nc(F)c[nH]c1=O,Lassa virus,,Huh-7,,1.7 ± 0.69 µM
CCCCCCCCNC(C)C(O)c1ccc(SC(C)C)cc1 (centres unmarked),SARS-CoV-2,"viral replication, GFP plate reader screen",BetaCov/Belgium/GHB-03021/2020,cell-based,> 100 µM
Cc1cc2ncn(-c3ccc(OC(C)(C)C)cc3)c2cc1-c1ccc(OC(C)(C)O)cc1,vesicular stomatitis virus,"viral entry, inhibitor",,pseudotyped with Machupo virus glycoprotein,≤ 0.004 µM
C=CC(=O)Nc1cc(Nc2nccc(-c3cn(C)c4ccccc34)n2)c(OC)cc1N(C)CCN(C)C,SARS-CoV-2,"viral replication, GFP plate reader screen",,cell-based,> 100 µM
O=c1nc(NO)ccn1[C@@H]1O[C@H](CO)[C@@H](O)[C@H]1O,SARS-CoV-2 Washington strain,"viral replication, qRT-PCR",Caco-2,,1.7 ± 0.9 µM
O=C(c1cc2ccccc2n1Cc1ccccc1)N1CCCCC1,Marburg virus,pseudovirus entry,A549,,> 100 µM
NC(=O)c1nc(F)c[nH]c1=O,Tacaribe virus,viral replication,Vero,120 h,13.5 µM
O=c1[nH]c(=O)n([C@H]2C[C@H](O)[C@@H](CO)O2)cc1/C=C/Br,vaccinia virus,viral replication,HEL,,10 µM
CN(C)S(=O)(=O)NCC1CCOC2(CCN(C(=O)C(=O)c3ccccc3)CC2)C1 (centres unmarked),Venezuelan equine encephalitis virus,viral replication,,,> 39.8 µM
O=c1ccn([C@@H]2O[C@](F)(CO)[C@@H](O)[C@H]2O)c(=O)[nH]1,Mammarenavirus lujoense,viral replication,,,0.29 to 2.65 µM
oseltamivir carboxylate,Influenza B virus,"viral replication, visual CPE score",,,45 µM
S=c1[nH]nc(NCNc2n[nH]c(=S)s2)s1,Xanthomonas oryzae pv. oryzicola,bacterial growth,,,64 µg/mL
Cc1cc2ncn(-c3ccc(OC(C)C)cc3)c2cc1-c1ccc(OC(C)C)cc1,Lassa virus,viral replication,,,< 0.0033 µM
Cc1cccc(C)c1NC(=O)CN1CCN(CCCC(c2ccc(F)cc2)c2ccc(F)cc2)CC1,SARS-CoV-2,"viral replication, high-content imaging screen",,cell-based,> 100 µM
CS(=O)(=O)NCC1CCOC2(CCN(C(=O)C3(c4ccc(Cl)cc4)CCCC3)CC2)C1 (centres unmarked),Venezuelan equine encephalitis virus,viral replication,,,> 39.8 µM
CO[C@H]1/C=C/O[C@@]2(C)Oc3c(C)c(O)c4c(O)c(c(/C=N/N5CCN(C6CCCC6)CC5)c(O)c4c3C2=O)NC(=O)/C(C)=C\C=C\[C@H](C)[C@H](O)[C@@H](C)[C@@H](O)[C@@H](C)[C@H](OC(C)=O)[C@@H]1C,Yellow fever virus,viral replication,SH-SY5Y,,0.436 µM
O=c1ccn([C@H]2[C@H](O)[C@H](O)[C@@H](CO)[C@H]2F)c(=O)[nH]1,MERS-CoV,viral replication,Vero,,> 100 µM
CC(C)Oc1ccc(-c2ccc3cnc(-c4ccc(OC(C)C)cc4)n3c2)cc1,vesicular stomatitis virus,"viral entry, inhibitor",,pseudotyped with Junin virus glycoprotein,> 0.02 µM
O=C1c2c(O)c(=O)ccn2N([C@@H]2c3ccccc3SCc3c2ccc(F)c3F)[C@@H]2COCCN12,Influenza A virus,"viral replication, plaque reduction",A(H7N7) A/environment/Bangladesh/41896/2019,mean,0.00011 µM

# Repeated from above:
Substance,organism,assay,system,conditions,EC50
CN1CCN(CCCN2c3ccccc3Sc3ccccc32)CC1,SARS-CoV-2,"viral replication, GFP plate reader screen",,cell-based,14 µM
CN(C)C1CCN(C(=O)c2cc3ccccc3n2CC2CCCCC2)CC1,Sudan ebolavirus,pseudovirus infection,A549,,0.771 ± 0.07 µM
Nc1ccn(C[C@@H](CO)OCP(=O)(O)O)c(=O)n1,Monkeypox virus,viral replication,HEL 299,,17.2 ± 6.4 µM
CC(C)[C@H](NC(=O)[C@H](CCCNC(=N)N)NC(=O)N[C@@H](Cc1ccccc1)C(=O)O)C(=O)N[C@H](C=O)CCCNC(=N)N,SARS-CoV-2 Omicron BA.2,pseudovirus infection,,48 h,1.11 µM
CCCCCCN(CC1CCOC2(CCN(C(=O)C3(c4ccccc4)CCCC3)CC2)C1)S(C)(=O)=O (centres unmarked),Venezuelan equine encephalitis virus,viral replication,,,10 µM
CN(C)C(=O)c1cc2cnc(Nc3ccc(N4CCNCC4)cn3)nc2n1C1CCCC1,SARS-CoV-2,"viral replication, GFP plate reader screen",,cell-based,> 100 µM
